Measured values pooled from the literature.
± marks the error that the study gave.

| SMILES | system | setting | scale | quantity | value |
| --- | --- | --- | --- | --- | --- |
| C=CC(=O)N1CCC[C@@H](n2c(=O)n(-c3ccc(Oc4ccccc4)cc3)c3c(N)nccc32)C1 | human | oral, 60 mg | relative to: fed over fasted | AUC fed/fasted ratio | 2.23 |
| COc1ccc2nc([S@@+]([O-])Cc3ncc(C)c(OC)c3C)[nH]c2c1 | human male, dried plasma spots | dose not given, mean of (R)- and (S)-enantiomers, added: fluvoxamine and voriconazole | relative to: inhibition over control | AUC fold change | 8.1 |
| O=C(COc1ccc(Cl)cc1)NC12CC(c3nnc([C@H]4C[C@@H](OC(F)(F)F)C4)o3)(C1)C2 | healthy human volunteers fasted, plasma | oral, 200 mg single dose, geometric mean | – | AUC | 143 µM·h |
| C=CC(=O)Nc1cc(Nc2nccc(-c3cn(C)c4ccccc34)n2)c(OC)cc1N(C)CCN(C)C | human patients | oral, dose not given, cycle 3 day 1, safety run-in, geometric mean, added: pemetrexed + carboplatin | – | AUC at steady state | 10.2 µM·h |
| COc1ccc2nc([S@@+]([O-])Cc3ncc(CO)c(OC)c3C)[nH]c2c1 | human, dried plasma spots | dose not given, added: rifampicin pretreatment | relative to: control over induction | AUC fold decrease | 2.6 fold |
| N#Cc1ccc(C(c2ccc(C#N)cc2)n2cncn2)cc1 | human patients, plasma | oral, 12.5 mg daily | – | AUC at steady state per dose | 6.5 ± 1.83 µg·h/mL/mg |
| Cc1cc(-c2nccc3c2ccn3CC(=O)Nc2ccc(-c3cnccn3)cn2)ccn1 | human, plasma | oral, 7 mg single dose, geometric mean | – | AUC | 0.61 µM·h |
| Nc1ccn([C@@H]2O[C@H](CO)[C@@H](O)C2(F)F)c(=O)n1 | human patients, plasma | intravenous, 800 mg/m2, mean, after paricalcitol | – | AUC extrapolated | 0.513% |
| CC(C)(C(=O)N1CCOc2c(C#N)cncc2C1)C(F)F | healthy humans, both sexes, plasma | oral, 40 mg single dose, 1.33-fold dose increase | relative to: 40 mg over 30 mg | AUC dose proportionality ratio | 2.12 |
| N#Cc1cc(NC(=O)[C@H]2c3ccccc3C(=O)N(CC(F)(F)F)[C@@H]2c2cccnc2)ccc1F | human, plasma | oral, 600 mg, median | – | AUC | 25100 ng·h/mL |

For quick reference, copied from above:
| SMILES | system | setting | scale | quantity | value |
| --- | --- | --- | --- | --- | --- |
| Nc1ccn([C@@H]2O[C@H](CO)[C@@H](O)C2(F)F)c(=O)n1 | human patients, plasma | intravenous, 800 mg/m2, mean, after paricalcitol | – | AUC extrapolated | 0.513% |
| CC(C)(C(=O)N1CCOc2c(C#N)cncc2C1)C(F)F | healthy humans, both sexes, plasma | oral, 40 mg single dose, 1.33-fold dose increase | relative to: 40 mg over 30 mg | AUC dose proportionality ratio | 2.12 |
